Measured values of several laboratories.
Numbered parts are unrelated; each lists some results of a single study.

Study 1
Target: Prothrombin, mature alpha-thrombin (F2, Homo sapiens, UniProt P00734)
Technique: aptamer microarray, sandwich
Form: DNA with 2'F-ANA
Sample: in vitro
Tested at: 200 nM
Setting: whole 15-mer aptamer, many near background
Added: Cy3 exosite-II aptamer, 400 nM
Direction: higher = stronger binding
Strand: GGTTGGTGTGGTTGG
Modification	mean fluorescence intensity [a.u.]
2'F-ANA at 1 2 3 5 7 10 11 14 15	47.3
2'F-ANA at 2 3 4 5 6 7 8 9 15	132
2'F-ANA at 2 3 7 10 13 14	314
2'F-ANA at 1 2 3 4 8 9 10 12 13	62.7
2'F-ANA at 1 5 6 8 9 10 12 14	45.1
2'F-ANA at 2 4 7 8 11 15	331
2'F-ANA at 2 4 5 7 9 10 12 15	101
2'F-ANA at 1 9 14 15	55.5
2'F-ANA at 1 3 5 6 7 9 11 12 13	76.6
2'F-ANA at 3 5 6 7 8 9 10 15	66.6
2'F-ANA at 1 2 3 6 7 9 10 12 13	72
2'F-ANA at 2 5 6 8 9 10 11 12 13 15	52.2
2'F-ANA at 2 6 8 9 11 13 14 15	105
2'F-ANA at 1 2 3 4 5 8 11 12	95.5
2'F-ANA at 2 4 6 8 10 11 12 14	56.8
2'F-ANA at 2 3 4 10 12 13 14 15	185

Study 2
Target: RING finger protein unkempt homolog, zinc fingers 1-6, GST-SBP tag (UNK, Homo sapiens, UniProt Q9C0B0, residues 30-357)
Technique: RNA Bind-n-Seq
Form: RNA
Sample: in vitro
Tested at: not given
Setting: RNA with constant flanks, ends assumed
Relative to: input RNA pool
Direction: higher = stronger binding
Shared flanks, not repeated: GGGAGUUCUACAGUCCGACGAUC … CAACAGAGGAUUGAGCAUCA
Construct (chain): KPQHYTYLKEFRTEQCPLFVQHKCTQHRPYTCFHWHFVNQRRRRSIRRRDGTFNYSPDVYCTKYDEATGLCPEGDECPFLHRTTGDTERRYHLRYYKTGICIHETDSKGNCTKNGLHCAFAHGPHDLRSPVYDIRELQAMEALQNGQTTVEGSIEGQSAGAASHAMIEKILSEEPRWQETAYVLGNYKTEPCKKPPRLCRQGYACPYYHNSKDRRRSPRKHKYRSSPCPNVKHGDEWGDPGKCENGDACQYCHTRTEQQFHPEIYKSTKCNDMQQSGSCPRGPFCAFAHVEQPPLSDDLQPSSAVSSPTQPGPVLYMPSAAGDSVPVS
Strand	bound/input enrichment [ratio]
UCAGUCUAAGUCACAAAAAUAUCCAGUUUAACAUAAAGCUGUCUGUGCAAAGAAUAGGUGACCGACUGCUAUUUUAACCAGGCUGAAAAGAAAAACAGAUGCAAGUGUCCCCUUUCAUGG	0.13
UACAGCCUGGGCUCUAUGAAACUGUUUUAAACAAACAAAACAAAGAUGCCACCUCUAACUCCGUUGGCAGGGUUAGAGACUCAAUACAGUGCCAAACUUUAUAAAAAUAAACUGUGCUCU	0.244
AAAAAAAAGCCUAUUAAUAGGGUUUCUGCGCGGUGCAGGGUUGUAAACCUGCUUUAUCUUUCCGGAUUAUUCCUAAAUGCAUCUUCUUUAUAAACUUGACUUGCUAUCUCAGCAAGAUAA	0.126
UUGGAACAGGCUGAUGAAGACUUAGCUACCGGCUUGGCAUUGAUUGACCUGGGUCAGAGUACCGAUAUGAAACUUUUCCCUAAAGGAACUGUAUUUACAGGAAAAUGUGAAACAUCUGGU	0.0671
UUGGUUGUGACUUCUCUGUGUAAGUCAUCUUCUACGCCAGCUUCCCAGAACAACCUGCGGCACCCGGUCCCACCUUCGCACAACCGGUGUGAUUGACAUGAGUUCACCAGACCAGCAGGC	0.101
GAACUGGUGGAAGCUAUGUAUGGCAAACUCAGCAACCAGGAAAGGAUCACACUGUCCGACACCGUGACCGCCAAGCUAGUGGGUGAGGAGCAGCUGACAAAGGAUGACAUCUCUAUCUUU	0.11
CCUACAACCAUCAUGAAUGCAGAUAUUCUAGCAUAUUGUCAGAAGGAAGGAUGGUGCAAAUCCGCUUUUUAUCUUCUAGCAUUUUUUUACUACCUAUAUGGCAUGAUCUAUGUUUUGGUG	0.672
AUGGAGGUUAAAGUGAAGAUUCCUGAAGAAUUAAAACCAUGGCUUGUUGAGGACUGGGACUCCGUUACCAGGCAGAAGCAGCUGUUUCAACUCCCUGCCAAGAAAAAUGUAGAUGCAAUU	0.341

Study 3
Target: RNA binding protein fox-1 homolog 2, RRM domain, GST-SBP tag (RBFOX2, Homo sapiens, UniProt O43251-10, residues 100-194)
Technique: RNA Bind-n-Seq
Form: RNA
Sample: in vitro
Tested at: 365 nM
Setting: natural RNA segment, single round, ends assumed
Relative to: no-protein control
Direction: higher = stronger binding
Shared flanks, not repeated: GGGAGUUCUACAGUCCGACGAUC … UGGAAUUCUCGGGUGCCAA
Residues (chain): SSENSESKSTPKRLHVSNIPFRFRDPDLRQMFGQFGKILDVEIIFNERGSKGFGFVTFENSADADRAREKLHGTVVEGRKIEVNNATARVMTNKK
Strand	RBNS enrichment (R)
CAGGGGAAGACCAAAGUUUGCAACUCGAACUGCUUUCGUCCAUGUUUCUCACAUUGCUGUAUUUUAGAAAAUAGGGGUUAAGACUGAUAACAACCUUUUACAUUGUGACU	1.21
UGUCAAGGCAGAAUAUUACUGAGAAUGAUCCUGUUCAACCUCCUAGUGCCUCUACUGAAUUAUUCCUCUUUUAAAUGGUUAAUGAACCAAUAAUUUUUAAAUCAUACCAA	0.532
CUCUUCAGCUCCCAGAAACUUACGCUUCCUCAUUUCUCAUAGCAUUUUAACUAGUGAACAUAAGGACAAUUUGCCUCAAUAGAAGACCAACAACCCCAUCAUGGAAUAUC	0.368
GUCCUGGGCAGGCAGAGCUGGGGUUGGCCUGAUCCCACCUGCCUUGCUCUUGGAAAGGACAUCAGGUGUGGGCAAAGCAUCCUUGAAGCCCAGACAACACAGGCAUGGCC	1.4
UAGUCUGGGUGGUGAACGGGCUGACACUGCUGUCACUGGUUCUUAGGACCUAAGGUGGUCCUCAUAAACUCCUGGGGGAAGCUGGGAGCAACUUCCUGGGAAGCUAAUUU	0.584
ACAUUUGUCAUGUGGGAAGAAUUUAGAUUAUGAUGCAGGAAAUUUCUUCCUGGGGUCAGAAGUUUCUAAGAAGUCCUGUAUUUUUUAAGAAAUGGAAUUUAUUUAAAUAC	0.817
CCUCUGGGCACCAGGCGUGCACAUGGUAUACAGACAUAGGUGCAGACAAAACAUCUAUACGUACAGUACCACUAAUAAAUGUUGAGCUCCUGCUGUCCUGUUGGAAAGUU	0.224
CAAAUAAAACCAAAUCUUUUGUCAACAGGAUGAAACCCAUCUUAAAGGAAAGAAAAGGAAUUGGUGUGAAGAGAGAAGUUAGAGAAGGGAAAUGCAGUGAAUUACUAUCU	0.628

Study 4
Target: Ras GTPase-activating protein-binding protein 1, RRM domain (G3BP1, Homo sapiens, UniProt Q13283)
UniProt Q13283, sequence (whole entry, looked up): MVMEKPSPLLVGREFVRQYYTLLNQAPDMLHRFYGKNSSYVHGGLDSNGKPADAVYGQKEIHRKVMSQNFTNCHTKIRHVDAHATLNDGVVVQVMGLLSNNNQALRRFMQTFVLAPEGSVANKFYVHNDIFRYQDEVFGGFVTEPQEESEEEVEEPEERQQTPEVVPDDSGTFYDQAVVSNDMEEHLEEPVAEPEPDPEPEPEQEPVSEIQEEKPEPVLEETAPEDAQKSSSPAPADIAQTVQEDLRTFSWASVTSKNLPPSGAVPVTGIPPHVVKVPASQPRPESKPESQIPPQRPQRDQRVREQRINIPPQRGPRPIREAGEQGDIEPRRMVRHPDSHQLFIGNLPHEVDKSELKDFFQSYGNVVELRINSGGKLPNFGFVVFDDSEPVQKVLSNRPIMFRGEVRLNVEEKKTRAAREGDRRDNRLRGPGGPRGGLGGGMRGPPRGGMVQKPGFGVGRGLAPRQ
Technique: RNA Bind-n-Seq
Form: RNA
Sample: in vitro
Tested at: 1 µM
Setting: whole 134-nt RNA, ends assumed
Added: 150 mM KCl
Relative to: input library
Direction: higher = stronger binding
Shared flanks, not repeated: GGGAGUUCUACAGUCCGACGAUC … UGGAAUUCUCGGGUGUCAAGG
Strand	log2 enrichment
CAAGUCCUGUGCUACACAUCGUAUGUACCGAAUCGGGAAAAGGAAAAGGAAAAGGGAAAGUAUUAUGUUACGCCGUUCGGAUCUGCACUU	-0.216
ACCAUGCAGGUGGGCAUCUUUGGGAAGUGGGGCAAGGGGGGGAUAGGGCGGGGGGUAACACUUUGGGAACAGGUGGUCCCAGGUCGUUUC	1.04
AGUCCUGUGCUACACAUCGUAUGUACCGAAUCGGGGAAAGGGGAAAGGGGUUUGGGGAAAGUAUUAUGUUACGCCGUUCGGAUCUGCACU	1.66
UCCUGUGCUACACAUCGUAUGUACCGAAUCGGGGAAAGGGGUUUGGGGUUUUUUUGGGGAAAGUAUUAUGUUACGCCGUUCGGAUCUGCA	1.12
UCCUGUGCUACACAUCGUAUGUACCGAAUCGGCCCCCCCGGCCCCCCCGGGCCCCCCCGGAAAGUAUUAUGUUACGCCGUUCGGAUCUGC	-0.472
CACAGACAACACGCACCCACACAGACACAGAGGGAUGGGGUUGGGAUGGGGACAGGGUGCACAGCAGGGCGGGGUAGGACCCCAGCCCCU	0.0254
CUCAAGUCCUGUGCUACACAUCGUAUGUACCGAAUCGGGCCGGGCCGGCCGGGAAAGUAUUAUGUUACGCCGUUCGGAUCUGCACUUCCA	-0.409
UGUGCUACACAUCGUAUGUACCGAAUCGGGGUUUUUUUGGGUUUUUUUGGGGUUUUUUUGGGAAAGUAUUAUGUUACGCCGUUCGGAUCU	-0.2
UGGCUGCAGGCGCACCCCGGCAGGAUUUUGCCUCCGCUGUCGCCCCCGCAGCACCGCUACUCGGAGGGCGAGCGGACCUCCCUGGAGAAG	-0.508

Repeated from above (study 1):
Modification	mean fluorescence intensity [a.u.]
2'F-ANA at 1 5 6 8 9 10 12 14	45.1
2'F-ANA at 1 3 5 6 7 9 11 12 13	76.6
2'F-ANA at 1 2 3 4 5 8 11 12	95.5
